Measured values pooled from the literature.
Organism: Pseudomonas aeruginosa

CC[C@H](C)[C@H](NC(=O)CNC(=O)[C@H](CC(=O)O)NC(=O)[C@H](CCCNC(=N)N)NC(=O)[C@@H](NC(=O)[C@H](CC(N)=O)NC(=O)[C@H](CCC(=O)O)NC(=O)CNC(=O)[C@@H](NC(=O)[C@H](CCCCN)NC(=O)[C@H](CCC(=O)O)NC(=O)[C@@H](NC(=O)[C@H](CCCCN)NC(=O)[C@H](CCCCN)NC(=O)[C@H](Cc1ccccc1)NC(=O)[C@@H](NC(=O)[C@H](CCCCN)NC(=O)[C@H](Cc1c[nH]c2ccccc12)NC(=O)[C@@H](N)CCCNC(=N)N)[C@@H](C)CC)[C@@H](C)CC)C(C)C)C(C)C)C(=O)N[C@H](C(=O)N[C@@H](CCCCN)C(=O)N[C@@H](C)C(=O)NCC(=O)N1CCC[C@H]1C(=O)N[C@@H](C)C(=O)N[C@H](C(=O)N[C@@H](C)C(=O)N[C@H](C(=O)N[C@H](C(=O)NCC(=O)N[C@@H](CCC(N)=O)C(=O)N[C@@H](C)C(=O)N[C@@H](C)C(=O)N[C@H](C(=O)N[C@H](C(=O)N[C@H](C(=O)N[C@@H](CCCCN)C(N)=O)C(C)C)C(C)C)[C@@H](C)O)C(C)C)C(C)C)C(C)C)[C@@H](C)CC
MIC (KCCM 11328, Mueller-Hinton broth; 16 h, 37 °C; growth inhibition over 99%): 32 µM

CC(C)C1NC(=O)C(C(=O)NC(C(=O)NC2C(=O)N3C2SC(C)(C)C3C(=O)O)c2ccccc2)=C1O (stereo not drawn)
MIC (broth microdilution; TonB-dependent receptor mutant; PA two-allele library): 100 µg/mL

CC[C@H](C)[C@H](NC(=O)[C@H](CCCCN)NC(=O)[C@H](CCCNC(=N)N)NC(=O)[C@H](CCCCN)NC(=O)[C@H](CCCNC(=N)N)NC(=O)[C@H](CCCCN)NC(=O)[C@@H](N)CCCNC(=N)N)C(=O)N[C@@H](CO)C(=O)N[C@@H](Cc1ccccc1)C(=O)N[C@@H](CC(C)C)C(=O)NCC(=O)N[C@@H](CO)C(=O)N[C@@H](CCCCN)C(=O)N[C@H](C(=O)N[C@H](C(=O)N[C@H](C(=O)N[C@@H](CC(C)C)C(=O)N[C@@H](CC(C)C)C(=O)N[C@@H](CCCCN)C(=O)N[C@@H](CCCNC(=N)N)C(N)=O)C(C)C)C(C)C)C(C)C
MIC (broth microdilution; ATCC 27853; highest value reported): 16 µM

CC[C@H](C)[C@H](NC(=O)[C@H](CC(C)C)NC(=O)[C@H](CCCCN)NC(=O)[C@@H](NC(=O)[C@H](C)NC(=O)[C@H](CCC(=O)O)NC(=O)[C@H](Cc1c[nH]cn1)NC(=O)[C@@H](NC(=O)[C@H](CCCCN)NC(=O)[C@H](CCC(N)=O)NC(=O)[C@H](Cc1ccccc1)NC(=O)[C@@H](N)C(C)C)[C@@H](C)CC)[C@@H](C)CC)C(N)=O
MIC (broth microdilution; 4891 resistant; 18 h, 37 °C): > 128 µM

CC[C@H](C)CCCCC(=O)N[C@@H](CCN)C(=O)N[C@H](C(=O)N[C@@H](CCN)C(=O)N[C@H]1CCNC(=O)[C@H]([C@@H](C)O)NC(=O)[C@H](CCN)NC(=O)[C@H](CCN)NC(=O)[C@H](CC(C)C)NC(=O)[C@@H](CC(C)C)NC(=O)[C@H](CCN)NC1=O)[C@@H](C)O
MIC (broth microdilution; ATCC 27853): 0.5 µg/mL

O=[N+]([O-])[O-].O=[N+]([O-])[O-].O=[N+]([O-])[O-].[Ga+3]
MIC (broth dilution; PAO1; 22 to 24 h, 37 °C): 2 µg/mL

CC[C@H](C)[C@H](NC(=O)[C@H](Cc1c[nH]c2ccccc12)NC(=O)[C@@H](NC(=O)[C@@H](NC(=O)[C@@H](NC(=O)[C@H](CCCNC(=N)N)NC(=O)[C@@H](N)CCCNC(=N)N)[C@@H](C)CC)[C@@H](C)O)[C@@H](C)CC)C(=O)N[C@H](C(=O)N[C@H](C(=O)N[C@@H](CCCNC(=N)N)C(=O)N[C@@H](CCCNC(=N)N)C(N)=O)[C@@H](C)CC)[C@@H](C)O
MIC (broth microdilution; 27853, Mueller-Hinton broth; 24 h, 37 °C, lowest concentration, 95% inhibition, added: BSA): 128 µM

CC1(C)S[C@@H]2[C@H](NC(=O)[C@H](N)c3ccccc3)C(=O)N2[C@H]1C(=O)O
MIC (pvdA mutant): 200 µg/mL

CC[C@H](C)[C@H](NC(=O)[C@H](CC(C)C)NC(=O)[C@H](CCCNC(=N)N)NC(=O)[C@@H](N)CCCNC(=N)N)C(=O)N[C@@H](CCCNC(=N)N)C(=O)N[C@@H](CCCCN)C(=O)N[C@@H](CC(C)C)C(=O)N[C@@H](CCCCN)C(=O)NCC(=O)N1CCC[C@H]1C(=O)N[C@H](C(=O)N[C@H](C(=O)N[C@@H](Cc1ccc(O)cc1)C(=O)N[C@@H](CC(C)C)C(=O)N[C@@H](Cc1ccc(O)cc1)C(=O)N[C@@H](Cc1ccccc1)C(=O)N[C@@H](CCCCN)C(=O)N[C@@H](CC(C)C)C(=O)N[C@@H](CCC(N)=O)C(=O)N[C@@H](CC(C)C)C(=O)N[C@@H](CC(C)C)C(=O)N[C@@H](CCCCN)C(=O)N[C@@H](CCCCN)C(N)=O)[C@@H](C)CC)[C@@H](C)CC
MIC (KCTC 1637, Mueller-Hinton broth; 24 h): 32 µM

CCCCCCCCCC(=O)N[C@@H](Cc1c[nH]c2ccccc12)C(=O)N[C@H](CC(N)=O)C(=O)N[C@@H](CC(=O)O)C(=O)N[C@@H]1C(=O)NCC(=O)N[C@@H](CCCN)C(=O)N[C@@H](CC(=O)O)C(=O)N[C@H](C)C(=O)N[C@@H](CC(=O)O)C(=O)NCC(=O)N[C@H](CO)C(=O)N[C@@H]([C@H](C)CC(=O)O)C(=O)N[C@@H](CC(=O)c2ccccc2N)C(=O)O[C@@H]1C
MIC (ATCC 27853; 24 h): > 100 µM

CC[C@H](C)[C@H](NC(=O)[C@H](Cc1ccccc1)NC(=O)[C@@H](NC(=O)[C@H](Cc1c[nH]c2ccccc12)NC(=O)[C@@H]1CCCN1C(=O)[C@@H](NC(=O)[C@H](C)N)[C@@H](C)CC)[C@@H](C)CC)C(=O)N[C@@H](Cc1ccccc1)C(=O)N[C@@H](CCCNC(=N)N)C(=O)N[C@@H](CC(C)C)C(=O)N[C@@H](CC(C)C)C(=O)N[C@@H](CCCNC(=N)N)C(=O)N[C@@H](CCCCN)C(=O)NCC(N)=O
MIC (broth microdilution; PAO1; 18 h, 37 °C): > 15 µM

CC[C@H](C)[C@H](NC(=O)[C@H](CC(C)C)NC(=O)[C@H](CC(C)C)NC(=O)[C@H](CC(C)C)NC(=O)[C@@H](NC(=O)[C@@H](NC(=O)[C@H](CCCCN)NC(=O)[C@H](CCCCN)NC(=O)[C@H](CCCCN)NC(=O)[C@H](CCCCN)NC(=O)[C@H](CC(C)C)NC(=O)[C@H](CCCNC(=N)N)NC(=O)[C@H](CO)NC(=O)[C@@H](N)CO)[C@@H](C)CC)C(C)C)C(=O)N[C@@H](CO)C(=O)N[C@@H](CCCCN)C(=O)N[C@@H](CCCCN)C(=O)N[C@@H](CCCCN)C(=O)N[C@@H](CCCCN)C(N)=O
MIC (broth microdilution; ATCC 27853; highest value reported): 32 µM

CC[C@H](C)[C@H](N)C(=O)N[C@@H](CC(C)C)C(=O)NCC(=O)N[C@H](CCCNC(=N)N)C(=O)N[C@H](C(=O)N[C@@H](Cc1c[nH]c2ccccc12)C(=O)N[C@@H](CCCCN)C(=O)NCC(=O)N[C@H](C(=O)N[C@@H](CCCCN)C(=O)N[C@@H](CC(=O)O)C(=O)N[C@H](C(=O)N[C@@H](CC(C)C)C(N)=O)[C@@H](C)CC)[C@@H](C)CC)[C@@H](C)CC
MIC (broth microdilution; ATCC BAA-427, Mueller-Hinton broth; 16 h, 37 °C): 25 µM

CC(C)(C)Oc1ccc(CC2NC(=O)C(C(=O)NC(C(=O)NC3C(=O)N4C3SC(C)(C)C4C(=O)O)c3ccccc3)=C2O)cc1 (stereo not drawn)
MIC (pvcA mutant): 25 µg/mL

CC[C@H](C)[C@H](NC(=O)CNC(=O)[C@H](CC(=O)O)NC(=O)[C@H](CCCNC(=N)N)NC(=O)[C@@H](NC(=O)[C@H](CC(N)=O)NC(=O)[C@H](CCCNC(=N)N)NC(=O)CNC(=O)[C@@H](NC(=O)[C@H](CCCCN)NC(=O)[C@H](CCC(=O)O)NC(=O)[C@@H](NC(=O)[C@H](CCCCN)NC(=O)[C@H](CCCCN)NC(=O)[C@H](Cc1ccccc1)NC(=O)[C@@H](NC(=O)[C@H](CCCCN)NC(=O)[C@H](Cc1c[nH]c2ccccc12)NC(=O)[C@@H](N)CCC(=O)O)[C@@H](C)CC)[C@@H](C)CC)C(C)C)C(C)C)C(=O)N[C@H](C(=O)N[C@@H](CCCCN)C(=O)N[C@@H](C)C(=O)NCC(=O)N1CCC[C@H]1C(=O)N[C@@H](C)C(=O)N[C@H](C(=O)N[C@@H](C)C(=O)N[C@H](C(=O)N[C@H](C(=O)NCC(=O)N[C@@H](CCC(N)=O)C(=O)N[C@@H](C)C(=O)N[C@@H](C)C(=O)N[C@H](C(=O)N[C@H](C(=O)N[C@H](C(=O)N[C@@H](CCCCN)C(N)=O)C(C)C)C(C)C)[C@@H](C)O)C(C)C)C(C)C)C(C)C)[C@@H](C)CC
MIC (KCCM 11328, Mueller-Hinton broth; 16 h, 37 °C; growth inhibition over 99%): > 64 µM

CC(C)(C)OCC1NC(=O)C(C(=O)NC(C(=O)NC2C(=O)N3C2SC(C)(C)C3C(=O)O)c2ccccc2)=C1O (stereo not drawn)
MIC (pvdS mutant): 25 µg/mL

CC(C)C[C@H](NC(=O)[C@@H](NC(=O)[C@H](CCCNC(=N)N)NC(=O)[C@H](CCC(N)=O)NC(=O)[C@H](Cc1ccccc1)NC(=O)[C@H](Cc1ccc(O)cc1)NC(=O)[C@H](CC(N)=O)NC(=O)[C@H](Cc1c[nH]c2ccccc12)NC(=O)[C@@H](NC(=O)[C@H](CCCNC(=N)N)NC(=O)[C@H](CCCCN)NC(=O)[C@@H](N)Cc1ccccc1)C(C)C)C(C)C)C(=O)N[C@H](C(=O)N[C@@H](CCCCN)C(=O)N[C@@H](CCCCN)C(=O)N[C@@H](Cc1ccc(O)cc1)C(=O)N[C@@H](C)C(N)=O)C(C)C
MIC (broth dilution; ATCC 27853): > 100 µM

CC(C)CC1NC(=O)C(C(=O)NC(C(=O)NC2C(=O)N3C2SC(C)(C)C3C(=O)O)c2ccccc2)=C1O (stereo not drawn)
MIC (fpvA mutant): 25 µg/mL

C[C@@H](O)[C@H]1C(=O)N2C(C(=O)O)=C(S[C@@H]3CN[C@H](C(=O)N(C)C)C3)[C@H](C)[C@H]12
MIC (broth microdilution; multidrug-resistant clinical isolate): 0.5 µg/mL

CC1(C)SC2C(NC(=O)C(NC(=O)C3=C(O)C(Cc4ccsc4)NC3=O)c3ccccc3)C(=O)N2C1C(=O)O (stereo not drawn)
MIC (pqsE mutant): 50 µg/mL

N=C(N)NCCC[C@H](NC(=O)[C@@H](N)CCCNC(=N)N)C(=O)N[C@@H](Cc1c[nH]c2ccccc12)C(=O)N[C@@H](Cc1c[nH]c2ccccc12)C(=O)N[C@@H](CCC(N)=O)C(=O)N[C@@H](Cc1ccccc1)C(=O)N[C@@H](CCC(N)=O)C(=O)N[C@@H](Cc1ccccc1)C(=O)N[C@@H](CCCCN)C(N)=O
MIC (broth microdilution, optical density): 155 µM

Repeated from above:
CC(C)(C)OCC1NC(=O)C(C(=O)NC(C(=O)NC2C(=O)N3C2SC(C)(C)C3C(=O)O)c2ccccc2)=C1O (stereo not drawn)
MIC (pvdS mutant): 25 µg/mL

CC[C@H](C)[C@H](NC(=O)[C@H](CCCCN)NC(=O)[C@H](CCCNC(=N)N)NC(=O)[C@H](CCCCN)NC(=O)[C@H](CCCNC(=N)N)NC(=O)[C@H](CCCCN)NC(=O)[C@@H](N)CCCNC(=N)N)C(=O)N[C@@H](CO)C(=O)N[C@@H](Cc1ccccc1)C(=O)N[C@@H](CC(C)C)C(=O)NCC(=O)N[C@@H](CO)C(=O)N[C@@H](CCCCN)C(=O)N[C@H](C(=O)N[C@H](C(=O)N[C@H](C(=O)N[C@@H](CC(C)C)C(=O)N[C@@H](CC(C)C)C(=O)N[C@@H](CCCCN)C(=O)N[C@@H](CCCNC(=N)N)C(N)=O)C(C)C)C(C)C)C(C)C
MIC (broth microdilution; ATCC 27853; highest value reported): 16 µM
